Values quoted from earlier work as cited in several papers.
Numbered parts are unrelated; values within a part may stem from several laboratories. Numbers after ± are the reported error.

Chains of the proteins cited; added tags and fusions are not shown. Residues count along the entry.
UniProt P0DOF5, whole entry V27A: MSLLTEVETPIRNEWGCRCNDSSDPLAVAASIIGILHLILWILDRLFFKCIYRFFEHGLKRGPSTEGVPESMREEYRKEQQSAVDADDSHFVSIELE
UniProt P21917, whole entry: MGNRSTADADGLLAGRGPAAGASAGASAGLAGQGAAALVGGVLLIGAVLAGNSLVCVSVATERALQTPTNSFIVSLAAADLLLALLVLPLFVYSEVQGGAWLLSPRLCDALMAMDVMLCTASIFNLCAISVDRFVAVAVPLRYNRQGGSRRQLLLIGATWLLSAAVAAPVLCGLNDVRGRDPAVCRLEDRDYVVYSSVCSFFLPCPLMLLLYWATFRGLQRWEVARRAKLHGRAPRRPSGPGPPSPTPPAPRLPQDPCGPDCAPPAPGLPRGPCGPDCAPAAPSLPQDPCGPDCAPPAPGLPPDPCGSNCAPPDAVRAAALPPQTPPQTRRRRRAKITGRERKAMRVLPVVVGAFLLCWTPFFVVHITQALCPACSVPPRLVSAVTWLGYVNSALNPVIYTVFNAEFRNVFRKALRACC
UniProt P17787, 26-502 limits assumed: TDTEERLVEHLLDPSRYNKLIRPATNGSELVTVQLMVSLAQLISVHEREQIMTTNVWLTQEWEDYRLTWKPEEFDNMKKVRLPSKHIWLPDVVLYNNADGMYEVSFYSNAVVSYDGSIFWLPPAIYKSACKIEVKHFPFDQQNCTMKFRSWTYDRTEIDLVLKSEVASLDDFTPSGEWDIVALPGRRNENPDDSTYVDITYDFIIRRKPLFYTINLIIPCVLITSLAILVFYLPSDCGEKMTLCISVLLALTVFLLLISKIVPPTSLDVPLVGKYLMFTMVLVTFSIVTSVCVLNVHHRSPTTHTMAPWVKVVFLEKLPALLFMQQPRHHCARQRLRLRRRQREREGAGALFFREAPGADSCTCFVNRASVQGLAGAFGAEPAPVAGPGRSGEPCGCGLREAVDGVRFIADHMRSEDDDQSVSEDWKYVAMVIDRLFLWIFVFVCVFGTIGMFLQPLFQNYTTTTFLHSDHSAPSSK
UniProt P43681, 29-627 limits assumed: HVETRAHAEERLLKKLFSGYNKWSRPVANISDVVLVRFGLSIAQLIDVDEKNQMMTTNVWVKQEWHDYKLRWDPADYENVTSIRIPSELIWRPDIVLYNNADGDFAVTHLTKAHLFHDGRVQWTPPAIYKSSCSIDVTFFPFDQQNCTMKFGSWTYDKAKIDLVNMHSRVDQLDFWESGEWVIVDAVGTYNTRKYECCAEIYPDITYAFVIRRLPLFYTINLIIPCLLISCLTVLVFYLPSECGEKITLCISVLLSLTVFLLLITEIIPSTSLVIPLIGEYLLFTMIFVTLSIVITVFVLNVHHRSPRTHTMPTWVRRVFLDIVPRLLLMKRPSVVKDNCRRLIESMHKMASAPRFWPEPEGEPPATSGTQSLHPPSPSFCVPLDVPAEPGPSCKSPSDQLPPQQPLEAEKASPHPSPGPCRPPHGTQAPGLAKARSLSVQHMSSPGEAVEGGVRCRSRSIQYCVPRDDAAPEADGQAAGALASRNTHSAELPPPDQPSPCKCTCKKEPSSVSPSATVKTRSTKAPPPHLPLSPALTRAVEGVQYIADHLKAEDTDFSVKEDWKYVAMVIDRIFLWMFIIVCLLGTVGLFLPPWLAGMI

Study 1
Target: HLA class I histocompatibility antigen, A alpha chain, allele A*25:01 (Homo sapiens, UniProt P04439)
With `CSCC[C@H](NC(=O)[C@H](CC(C)C)NC(=O)[C@H](CCSC)NC(=O)[C@@H](N)Cc1ccc(O)cc1)C(=O)NCC(=O)N[C@@H](Cc1ccccc1)C(=O)N[C@@H](CCC(N)=O)C(=O)N[C@@H](CC(C)C)C(=O)N[C@@H](CCCCN)C(=O)O` the IC50 was over 20 µM.
`CC(C)C[C@H](NC(=O)[C@H](CC(C)C)NC(=O)[C@H](CC(C)C)NC(=O)[C@H](Cc1ccc(O)cc1)NC(=O)[C@H](CC(=O)O)NC(=O)[C@H](C)NC(=O)[C@H](CC(C)C)NC(=O)[C@@H](N)CCCCN)C(=O)N[C@@H](CCC(N)=O)C(=O)O` has an IC50 of over 20 µM.
The IC50 of `CSCC[C@H](NC(=O)[C@H](CCCCN)NC(=O)[C@@H]1CCCN1C(=O)[C@H](CC(=O)O)NC(=O)[C@H](CCCCN)NC(=O)[C@H](CCSC)NC(=O)[C@@H](N)CCCCN)C(=O)N[C@@H](Cc1ccc(O)cc1)C(=O)N[C@@H](Cc1c[nH]cn1)C(=O)O` is reported as over 20 µM.
The IC50 of `CC(C)C[C@H](NC(=O)[C@@H](NC(=O)[C@@H](NC(=O)[C@H](CO)NC(=O)[C@H](Cc1ccccc1)NC(=O)[C@H](CS)NC(=O)[C@@H](N)CCC(N)=O)C(C)C)C(C)C)C(=O)N[C@@H](CCCNC(=N)N)C(=O)N[C@@H](Cc1ccc(O)cc1)C(=O)O` is reported as over 20 µM.
With `CC[C@H](C)[C@H](NC(=O)[C@H](CCC(N)=O)NC(=O)[C@@H](N)Cc1ccccc1)C(=O)N[C@@H](CC(C)C)C(=O)N[C@@H](Cc1c[nH]cn1)C(=O)N[C@@H](CC(=O)O)C(=O)N[C@@H](CCCNC(=N)N)C(=O)N[C@@H](Cc1ccccc1)C(=O)N[C@@H](Cc1ccccc1)C(=O)O` the IC50 was over 20 µM.
`CSCC[C@H](N)C(=O)N1CCC[C@H]1C(=O)N[C@@H](CC(=O)O)C(=O)N[C@H](C(=O)N[C@@H](CC(C)C)C(=O)N[C@@H](Cc1ccccc1)C(=O)N[C@@H](CCC(=O)O)C(=O)NCC(=O)N[C@H](C(=O)O)C(C)C)[C@@H](C)O` has an IC50 of over 20 µM.
For `C[C@H](NC(=O)[C@H](CCC(N)=O)NC(=O)[C@@H](N)Cc1ccccc1)C(=O)NCC(=O)N[C@@H](Cc1c[nH]c2ccccc12)C(=O)N[C@@H](CCC(=O)O)C(=O)N[C@@H](CC(=O)O)C(=O)N1CCC[C@H]1C(=O)N[C@H](C(=O)O)[C@@H](C)O`, the IC50 was over 20 µM.

Single results of other studies
`C1CCC2(CC1)CCNCC2`: “activity against V27A mutant” “no effect” (Matrix protein 2 (Influenza A virus, UniProt P0DOF5, V27A); concentration not given).
With `Cc1cc(O)cc(C)c1C[C@H](N)C(=O)N[C@H](CCCNC(=N)N)C(=O)N[C@@H](Cc1ccccc1)C(=O)N[C@@H](CCCCN)C(=O)NCCNC(=O)[C@H](Cc1ccccc1)NC(=O)[C@H](CC1CCCCC1)NC[C@@H]1Cc2ccccc2CN1C(=O)[C@@H](N)Cc1ccc(O)cc1` the Ke was 2.4 ± 0.58 nM (delta opioid receptor; muscle contraction, antagonist; mouse vas deferens).
`O=C(Nc1cccc(C2=NCCN2)c1)c1ccc(-c2ccc(C(=O)Nc3cccc(C4=NCCN4)c3)cc2)cc1` gave an IC50 of about 0.1 µM (UPPS, Staphylococcus aureus; enzyme activity).
`Clc1ccc(N2CCN(Cc3cnn4ccccc34)CC2)cc1` has a Ki of 0.0031 ± 0.0003 µM (D(4) dopamine receptor (DRD4, Homo sapiens, UniProt P21917); binding).
For `COCCC1CC1c1cncc(OC[C@@H]2CCN2)c1` (some centres unmarked), the efficacy was 60% (Neuronal acetylcholine receptor; alpha4/beta2, high-sensitivity stoichiometry (Homo sapiens, UniProt P17787+P43681); ion flux, agonist; high-sensitivity α4β2; relative to: carbamylcholine).
`COc1cc(CCNCc2cc(OC)c(OC)c(OC)c2)c(OC)cc1Cl` gave a Ki of 0.038 µM (5-HT2A receptor).
`Cc1cn([C@@H]2CC[C@H](OC(C(=O)O)P(=O)(O)O)C2)c(=O)[nH]c1=O` (relative stereo) gave an IC50 of over 500 µM (DNA polymerase beta (POLB, Homo sapiens, UniProt P06746); enzyme activity, inhibitor).

Some of these lines once more (single results of other studies):
With `Cc1cc(O)cc(C)c1C[C@H](N)C(=O)N[C@H](CCCNC(=N)N)C(=O)N[C@@H](Cc1ccccc1)C(=O)N[C@@H](CCCCN)C(=O)NCCNC(=O)[C@H](Cc1ccccc1)NC(=O)[C@H](CC1CCCCC1)NC[C@@H]1Cc2ccccc2CN1C(=O)[C@@H](N)Cc1ccc(O)cc1` the Ke was 2.4 ± 0.58 nM (delta opioid receptor; muscle contraction, antagonist; mouse vas deferens).
